Measurements pooled from the literature.
Protocols differ between the studies behind these lines. Numbers after ± are the reported error. Values after ≈ are worked out from the molar mass of the structure shown.

SMILES | test | test system | conditions | scale | measurement | value
O=C(CCCCCCC(=O)Nc1ccc(CC[18F])cc1)NO | – | athymic nu/nu male mice, LNCaP xenograft, large intestine | intravenous, 0.5 h | – | tissue uptake | 4.3 ± 1.2 %ID/g
CCc1c(-c2ccccc2)c(-c2ccccc2)nn1-c1ccccc1-c1cccc(OCC(=O)O)c1 | – | male Sprague-Dawley rat, testis homogenate | oral, 10 mg/kg, 4 h | – | concentration | 59.4 ng/mL
Cc1cc(NC2CCN(C(=O)OC3CCN(C(=O)/C=C/CN(C)C)C3)CC2)n2ncc(C(C)C)c2n1 (stereo not drawn) | Phase I dose escalation CTCAE v4.0, refers to: decreased appetite | patients with advanced solid tumours | dose not given, QD dosing any grade | – | patients with adverse event | 16%
CCCC1CCC(c2ccc(-c3ccc(CC)cc3)cc2)CC1 (stereo not drawn) | – | rat, placenta | 5000 ng/mL in perfusate, high dose, mixture of 21 LCMs | – | median placental accumulation | 320 ng/g
COc1cc(Nc2ncc3c(n2)-c2ccc(Cl)cc2C(c2c(F)cccc2OC)=NC3)ccc1C(=O)O | refers to: Constipation, grade 2 | cancer patients, phase 1/2 | oral, dose not given, added: pembrolizumab | – | patients with adverse event | 4%
CNCc1ccc(-c2[nH]c3cc(F)cc4c3c2CCNC4=O)cc1 | refers to: Dizziness | human patients | oral, 600 mg twice daily, grade 3 | – | patients with adverse event | 0%
C=C1C(=O)O[C@H]2[C@H]1CC/C(COC(=O)n1ccnc1)=C\CC[C@@]1(C)O[C@@H]21 | – | BALB/c mice male, blood | oral, 757 µmol/kg | – | time to appearance in blood | ≤ 15 min
CC(C)c1nc(N(C)S(C)(=O)=O)nc(-c2ccc(F)cc2)c1/C=C/[C@@H](O)C[C@@H](O)CC(=O)O | – | human | oral, 10 mg, compound alone | – | participants with TRAE headache | 0%
COc1ccc2c(C)nc(Nc3nc(C)cc(O)n3)nc2c1 | – | aqueous buffer | pH 7.4 | – | thermodynamic solubility | < 0.00429 mM
CC(C)[C@@H](CN1CC[C@@](C)(c2cccc(O)c2)[C@@H](C)C1)NC(=O)[C@H]1Cc2ccc(O)cc2CN1 | – | Sprague-Dawley rat, plasma | intraperitoneal, 10 mg/kg | – | AUClast | 4410 ng·h/mL
O=C(N[C@H](Cc1c[nH]c2ccccc12)C(=O)Nc1ccncc1)c1ccc(N2CCN(c3ccc(F)cc3F)CC2)cc1F | – | Swiss Webster mouse, female, muscle | oral, 50 mg/kg, 2 h, 20% Kolliphor vehicle | – | concentration | 11.5 µM
c1ccc(-c2nc(N3CCC(c4ccccn4)C3)c3ccccc3n2)nc1 (stereo not drawn) | – | Japanese Pharmacopoeia disintegration test solution 2 | pH 6.8 | – | kinetic solubility | 80 µg/mL (≈ 226 µM)
CNC(=O)c1ccc(-c2nn3c(Cc4ccc5ncccc5c4)cnc3[nH]c2=O)cc1F | – | human plasma | -20 °C | – | storage stability | ≥ 275 days
CCN1/C(=C/C(C)=O)Sc2ccc(F)cc21 | – | cynomolgus monkey | oral, 30 mg/kg, 4 h post-dose | – | heart rate | 94 ± 24 beats/min
CC(C)c1nc(N(C)S(C)(=O)=O)nc(-c2ccc(F)cc2)c1/C=C/[C@@H](O)C[C@@H](O)CC(=O)O | refers to: dizziness | healthy men | oral, dose not given, 8 days, treatment-emergent, crossover trial | – | subjects with adverse event | 0%
COc1ccc2c(c1)CN(C(=O)CCN1CCC(Cc3ccccc3)CC1)CC[S@@+]2[O-] | telemetry | conscious male beagle dogs | intravenous, 4 mg/kg, 0.5 h | – | systolic blood pressure | 134 ± 17 mmHg
CN1C(=O)[C@@H](NC(=O)c2nnc(Cc3ccccc3)[nH]2)COc2cccnc21 | phase I single ascending dose | human, male and female | oral, 30 mg, fasted | – | medical device site reaction incidence | 50%
CC(=O)N[C@@H](CC(C)C)C(=O)N[C@H](C(=O)N[C@@H](Cc1ccccc1)C(=O)N[C@@]1(C)CCCC=CCCC[C@@](C)(C(=O)N[C@@H](CCC(N)=O)C(=O)N[C@@H](CC(C)C)C(=O)N[C@H](C(=O)N[C@@H](CO)C(N)=O)[C@@H](C)O)NC(=O)[C@H](Cc2c[nH]c3ccccc23)NC(=O)[C@H](Cc2ccc(O)cc2)NC(=O)[C@H](CCC(=O)O)NC1=O)[C@@H](C)O | circular dichroism | 10 mM phosphate buffer | 50 µM, pH 7.4 | – | helicity | 62%
CCN1CCN(Cc2ccc(NC(=O)c3ccc(C)c(NC(=O)c4cncc(-c5cccs5)c4)c3)cc2C(F)(F)F)CC1 | – | C57BL/6 mice, epithelial lining fluid | intraperitoneal, 20 mg/kg | – | extrapolated AUC share | 5.24%

SMILES | test | test system | conditions | scale | measurement | value
N#Cc1ccc2c(c1)[C@H]1CCCN(C(=O)c3ccc4[nH]cnc4c3)[C@H]1C2 | – | human | 80 mg, day 7 | reference: baseline | cortisol level change | -131 nmol/L
CCCCC[C@H](O)CC[C@@H]1[C@H]2Cc3cccc(OCC(=O)O)c3C[C@H]2C[C@H]1O | LC-MS/MS | Japanese PAH patients, plasma | inhaled, 54 µg, background ERA therapy | – | geometric mean Cmax | 0.61 ng/mL
O=C1NCCc2nc(OCc3cccc(F)c3)ccc21 | refers to: Piloerection | Sprague-Dawley rat male | oral, 100 mg/kg, 4 h | direction not given | Irwin test score | 0
CNC(=O)c1ccc(-c2cnc3ncc(Cc4ccc5ncccc5c4)n3n2)cc1F | – | Japanese patients | oral, 400 mg, grade 3/4 | – | Neutrophil count decreased dose reduction/interruption | 2%
O=C1CCc2ccc(OCCCCN3CCN(c4cccc(Cl)c4Cl)CC3)cc2N1 | – | CYP2D6 ultrarapid metabolizers | concentration not given, genotype-based phenotype, long-acting oral or depot | – | extrapyramidal symptom frequency | 10%
CC(C)(Oc1ccc(CCNC(=O)c2ccc(Cl)cc2)cc1)C(=O)O | shake-flask | Cremophor ELP | 37 °C, water up to 0.5% w/w | – | thermodynamic solubility | 14.6 ± 1.81 mg/g
N#CCNC(=O)c1ccc(-c2ccnc(Nc3ccc(N4CCOCC4)cc3)n2)cc1 | – | healthy volunteers, plasma | oral, dose not given, added: rifampin multiple-dose | reference: with single-dose rifampin | AUCinf decrease | 46%
C=CC(=O)N1CCC[C@@H](n2nc(-c3ccc(Oc4ccccc4)cc3)c3c(N)ncnc32)C1 | – | – | – | – | bulk density | 0.59 g/mL
COc1c(O)cc(C(=O)O)cc1O | – | broiler chickens, serum | oral, in feed, 2000 mg/kg feed, wheat diet with tannins | – | AUC | 0.64 ± 0.27 µM·h
CC(C)(C(=O)N1CCOc2c(C#N)cncc2C1)C(F)F | refers to: Ecchymosis | human | oral, 10 mg once daily, 14 days, multiple ascending dose | – | subjects with adverse event | 12.5%
C=CCN1CC(=O)N2[C@@H](Cc3ccc(O)cc3F)C(=O)N(Cc3cccc(N4CC(N5CCN(CC)CC5)C4)n3)C[C@@H]2N1C(=O)NCc1ccccc1 | – | advanced solid tumour patients | oral, 160 mg twice daily, grade ≥3, dose-escalation | – | treatment-related vomiting | 0%
O=C(Nc1nc2cccc(-c3ccc(CN4CCS(=O)(=O)CC4)cc3)n2n1)C1CC1 | refers to: paraesthesia | human rheumatoid arthritis patients | oral, 30 mg once daily, 4 weeks, regardless of relatedness | – | treatment-emergent adverse events | 5.9%
COc1cccc(OC)c1-c1cc(C(=O)NC2(C(=O)O)C3CC4CC(C3)CC2C4)nn1-c1ccc(C(=O)N(C)CCCN(C)CCCN(C)C(=O)CN2CCN(CC(=O)[O-])CCN(CC(=O)[O-])CCN(CC(=O)[O-])CC2)cc1C(C)C.[177Lu+3] (stereo not drawn) | – | mouse, HT-29 xenograft | 168 h post injection, biodistribution | reference: tumour over lung uptake | tumour-to-lung ratio | 7.22
Cc1nc2cccc(OCC(C)(C)C(=O)NC(C)C)c2c(N)c1C(=O)O | – | Swiss albino CD-1 mouse | oral, 1000 mg/kg, 36 h | – | mean body weight change | 2.9 ± 0.6 g
C[C@H]1O[C@@H](O[C@H]2[C@@H](O)C[C@H](O[C@H]3[C@@H](O)C[C@H](O[C@H]4CC[C@@]5(C)[C@H](CC[C@@H]6[C@@H]5C[C@@H](O)[C@]5(C)[C@@H](C7=CC(=O)OC7)CC[C@]65O)C4)O[C@@H]3C)O[C@@H]2C)C[C@H](O)[C@@H]1O | refers to: Diarrhea | human | oral, 0.25 mg | – | participants with TEAE | 0%
Cc1cc(C(=O)NC(C)(C)COc2cccc3c2C(N)=NS(=O)(=O)N3)cc(C)n1.O=S(=O)(O)O | – | Sprague-Dawley rat, plasma | oral, 10 mg/kg, vehicle 1% methylcellulose | reference: female over male | Cmax ratio | 1.14
CNC(=O)c1ccccc1Nc1cc(Nc2ccc(N3CCOCC3)cc2OC)ncc1C(F)(F)F | – | 0.1% w/v Soluplus buffer | 24 h, pH 4.5, 37 °C | – | solubility | > 180 µg/mL
c1csc(CNc2cc[nH]n2)c1 | alkaline comet | Hsd:ICR(CD-1) mice, female, liver | oral, 1000 mg/kg/day, 3 days | – | tail DNA | 5.19%
Cn1cc(Nc2nccc(-c3ccc4c(c3)CN(C3COC3)CC[C@H]4NC(=O)c3cn(C(C)(C)C)nn3)n2)cn1 | – | human, whole blood | 300 mg twice daily, day 7 | reference: pre-dose baseline | CD4+ T cell count change | -2.1%

SMILES | test | test system | conditions | scale | measurement | value
C[Si](C)(C)O[Si](C)(C)O[Si](C)(C)C | – | – | 2.7 to 6.3 µg/L, 20.8 °C | – | log KAW | 3.04
Nc1ncc(-c2ccncc2)nc1Nc1ccc2[nH]ccc2c1 | – | C57BL mice, male, plasma | subcutaneous, 10 mg/kg | – | t1/2 | 0.3 h
CN(C(=O)n1cnc(-c2cccnc2)c1)C1CCCCC1 | – | Wistar rat, hippocampus | oral, 10 mg/kg/day of BIA 10-2474, 24 h, repeated 5 days | – | concentration | 9.6 ± 0.1 ng/g
COc1cc([C@@H]2Oc3ccc([C@H]4Oc5cc(O)cc(O)c5C(=O)[C@@H]4O)cc3O[C@H]2CO)ccc1O | – | FVB wild-type mice, plasma | oral gavage, 500 mg/kg silymarin, geometric mean | – | AUC(0-4h) | 0.14 µM·h
Cl.[2H]C([2H])([2H])CC(=O)c1cnc(NC(=O)C2CC2)cc1Nc1cccc(-c2ncn(C([2H])([2H])[2H])n2)c1OC | geometric mean | human | oral, 5 mg single dose, fasted, liquid | – | elimination rate constant | 2.22e-05 s⁻¹
Cn1nc([N+](=O)[O-])nc1Oc1ccccc1C(=O)N1CCOCC1 | – | aqueous buffer | pH 7.4 | – | thermodynamic solubility | 4.93 mM (≈ 1640 µg/mL)
Cc1c(-c2ccc(N3CCc4cccc(C(=O)Nc5nc6ccccc6s5)c4C3)nc2C(=O)O)cnn1CC12CC3(C)CC(C)(C1)CC(OCCNCC[C@H](O)CO)(C3)C2 | – | anaesthetized male beagle dog | iv infusion, 0.1 mg/kg/min, 180 min | – | plasma concentration | < 4 ng/mL
C[C@@H](N)C1CCN(S(=O)(=O)c2cccc3cnccc23)CC1 | – | healthy volunteers | 25 mg, fasted | – | participants with dizziness | 0%
Cc1ccc(Sc2ccccc2N2CCNCC2)c(C)c1 | refers to: blood creatine phosphokinase increased | healthy adult men | oral, 20 mg daily, 12 days | – | participants with TEAE | 0%
O=C(Nc1cnccc1Cl)N1CCN(Cc2ccc3c(c2)OC(F)(F)O3)CC1 | multiple ascending dose | elderly men and women | 100 mg, treatment-emergent adverse events | – | back pain incidence | 33.3%
CCCC1CCC(c2ccc(OCC)c(F)c2F)CC1 (stereo not drawn) | – | rat, fetus | 5000 ng/mL in perfusate, high dose, mixture of 21 LCMs | – | median fetal accumulation | 1.42 ng/g
CN1CCC[C@H](CN2c3ccccc3Sc3ccccc32)C1.Cl | – | female Wistar rat, lung | oral, 16 mg/kg | – | Cmax | 19100 ng/g
Cc1ccc([C@@H]2O[C@H](CO)[C@@H](O)[C@H](O)[C@H]2O)cc1Cc1ccc(-c2ccc(F)cc2)s1 | – | Japanese type 2 diabetes patients | 400 mg, day 16, 24 h urine collection | reference: baseline | urinary sodium excretion change | 24.8 mEq
COc1cc2c(cc1OC)C(=O)C(CC1CCN(Cc3ccccc3)CC1)C2 (stereo not drawn) | spirometry | human subjects | dose not given | reference: placebo | FEV1 | 0.016 L
COc1ccc(Nc2nc(-c3ccccn3)nc3ccccc23)cc1 | – | Japanese Pharmacopoeia disintegration test solution 2 | pH 6.8 | – | kinetic solubility | 8 µg/mL (≈ 24.4 µM)
Cc1cc(-c2nccc3c2ccn3CC(=O)Nc2ccc(-c3cnccn3)cn2)ccn1 | – | human | 20 mg once daily, multiple ascending dose | – | medical device site dermatitis | 22.2%
COc1ccc([C@@H](O)c2cc(-c3ncnc4cc(N5CCOCC5)ccc34)c(F)cc2Cl)nn1 | – | locally advanced rectal cancer | oral, 100 mg, added: capecitabine and radiotherapy | – | incidence of proctitis TEAE | 33%
CCCc1ccc(-c2ccc(-c3cc(F)c(F)c(F)c3)c(F)c2)cc1 | – | rat, placenta | 10 ng/mL in perfusate, low dose, mixture of 21 LCMs | – | median placental accumulation | 0.86 ng/g
O=C1c2ccncc2C(=O)c2c1[nH]c1ccccc21 | – | Sprague-Dawley rat, male, plasma | intravenous, 5 mg/kg | – | MRT | 10.4 ± 6.5 h

Repeated from above:
SMILES | test | test system | conditions | scale | measurement | value
CN1C(=O)[C@@H](NC(=O)c2nnc(Cc3ccccc3)[nH]2)COc2cccnc21 | phase I single ascending dose | human, male and female | oral, 30 mg, fasted | – | medical device site reaction incidence | 50%
CC(=O)N[C@@H](CC(C)C)C(=O)N[C@H](C(=O)N[C@@H](Cc1ccccc1)C(=O)N[C@@]1(C)CCCC=CCCC[C@@](C)(C(=O)N[C@@H](CCC(N)=O)C(=O)N[C@@H](CC(C)C)C(=O)N[C@H](C(=O)N[C@@H](CO)C(N)=O)[C@@H](C)O)NC(=O)[C@H](Cc2c[nH]c3ccccc23)NC(=O)[C@H](Cc2ccc(O)cc2)NC(=O)[C@H](CCC(=O)O)NC1=O)[C@@H](C)O | circular dichroism | 10 mM phosphate buffer | 50 µM, pH 7.4 | – | helicity | 62%
CCN1CCN(Cc2ccc(NC(=O)c3ccc(C)c(NC(=O)c4cncc(-c5cccs5)c4)c3)cc2C(F)(F)F)CC1 | – | C57BL/6 mice, epithelial lining fluid | intraperitoneal, 20 mg/kg | – | extrapolated AUC share | 5.24%
